Assay results from different studies.
Parts stem from different laboratories: compare values within a part only. Substitutions count along the parent as printed.
UniProt P62256, sequence (whole entry, looked up): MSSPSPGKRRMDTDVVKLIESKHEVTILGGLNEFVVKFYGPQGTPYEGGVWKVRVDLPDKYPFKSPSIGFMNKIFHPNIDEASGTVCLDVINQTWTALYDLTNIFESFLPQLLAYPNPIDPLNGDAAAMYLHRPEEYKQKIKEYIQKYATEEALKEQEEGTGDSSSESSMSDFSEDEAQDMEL
UniProt P49427, sequence (whole entry, looked up): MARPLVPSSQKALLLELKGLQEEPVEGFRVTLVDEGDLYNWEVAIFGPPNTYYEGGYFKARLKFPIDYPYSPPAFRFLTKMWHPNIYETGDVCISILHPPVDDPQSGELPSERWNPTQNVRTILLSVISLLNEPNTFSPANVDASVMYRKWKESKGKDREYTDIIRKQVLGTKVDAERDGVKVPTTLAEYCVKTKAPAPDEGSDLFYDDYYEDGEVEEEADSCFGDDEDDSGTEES
UniProt Q5VVX9, sequence (whole entry, looked up): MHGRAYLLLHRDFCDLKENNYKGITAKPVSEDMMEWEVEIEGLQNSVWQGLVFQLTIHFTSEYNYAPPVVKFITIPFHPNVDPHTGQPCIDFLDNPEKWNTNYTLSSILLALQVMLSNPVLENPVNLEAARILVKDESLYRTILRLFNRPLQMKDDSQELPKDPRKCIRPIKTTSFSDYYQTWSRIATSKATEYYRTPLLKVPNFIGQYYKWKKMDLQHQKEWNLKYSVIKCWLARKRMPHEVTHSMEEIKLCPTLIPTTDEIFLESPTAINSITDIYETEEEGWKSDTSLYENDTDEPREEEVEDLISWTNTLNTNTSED
UniProt Q8WVN8, sequence (whole entry, looked up): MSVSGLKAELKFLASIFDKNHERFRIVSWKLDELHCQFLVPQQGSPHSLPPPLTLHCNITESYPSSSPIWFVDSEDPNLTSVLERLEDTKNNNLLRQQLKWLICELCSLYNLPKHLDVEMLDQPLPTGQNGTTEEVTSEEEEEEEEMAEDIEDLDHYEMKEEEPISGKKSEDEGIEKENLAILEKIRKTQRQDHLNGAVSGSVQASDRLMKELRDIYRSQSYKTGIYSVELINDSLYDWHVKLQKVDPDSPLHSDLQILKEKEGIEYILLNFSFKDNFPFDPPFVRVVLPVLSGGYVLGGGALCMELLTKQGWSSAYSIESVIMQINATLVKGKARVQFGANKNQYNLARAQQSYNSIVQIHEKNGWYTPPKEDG
UniProt P51965, sequence (whole entry, looked up): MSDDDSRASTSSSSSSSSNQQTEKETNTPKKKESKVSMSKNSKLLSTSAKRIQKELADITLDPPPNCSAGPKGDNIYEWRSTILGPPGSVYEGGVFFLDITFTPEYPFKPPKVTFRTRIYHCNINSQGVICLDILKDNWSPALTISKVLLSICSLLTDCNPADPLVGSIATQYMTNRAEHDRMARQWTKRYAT

Set 1 — method: RNA Bind-n-Seq; form: RNA; medium: in vitro; tested at: 365 nM; reference: no-protein control; direction: higher = stronger binding; measurement: RBNS enrichment (R)
Target: RNA binding protein fox-1 homolog 2, RRM domain, GST-SBP tag (RBFOX2, Homo sapiens, UniProt O43251-10, residues 100-194)
Notes: natural RNA segment, single round, ends assumed
Constant ends, left off below: GGGAGUUCUACAGUCCGACGAUC … UGGAAUUCUCGGGUGCCAA
Target sequence (chain): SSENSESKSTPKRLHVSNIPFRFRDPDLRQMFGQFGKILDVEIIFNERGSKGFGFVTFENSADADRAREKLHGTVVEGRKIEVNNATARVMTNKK
GCUCUGGAGUGAGGAGGGAGUGACCCCUCAGCCUGUGUAGGGUCCAGUUUUAUGCUCUCGGAAGGCUCAGCAGUGAUUGCUGCCGAGUGGGAAGUAGCUUCUCCCAGCUG: 0.479
UGGUGGGGGCAGAUCCUGCACACACAGACACAGCGUCUGCCCCCGAGCCAUUCCCUGGAGACCCUGGGUCUACCCCAGGUGGUCGUCAUCUGGGCCAUUUGCCUUACUUC: 0.229
UCCAGUUCUGUUUUUGCAUCGUGACAAAGAGAGCACAGCCAAUUCUCAUGCUGGCUUCUUCAGAUACUUUGAAAAACCCGGACAGCCACACCAGAGAGGCCUUAUAGCGG: 0.322
GGGGGGUGAGAAGACAAGAUGAAGAAAAGCCUUACAUUUCAGUUUCUUCAUCGGUUGGAUUGGAUGCUUACAGGGUUUUUCUUGUAACAUUUAUAAGUGCUGCUUACAUC: 0.5
CUCCUGCUUGCUUCCAAAGUGAUGGACAGGAAGGGGCAGAGUGAGUCACGGCCCAGACUGGGCACCUUCGCGUCUCAGCCUCAGGGAGCCCCACAGCCCCAAGCUCGCUG: 0.391
AGGGCUGAAAGUACAACGGUUCUUGGUUGGCUUUGCCUCGUGUUUAUAAAACUAGCUACUAUUCUUCAGGUAAAAUACCGAUGUUGUGGAAAAGCCAACCCCGUGGCUGC: 0.535
GUUGCCCCUAUGCUUCCAGGGCAAUUUGGAGCAGACAGACCAGUGGGGGGUGGGGAACCUCCUUCCACCUGCGCUUCCUUGAGGGGACCAGAGAGCCCUUGGUCCCAGGU: 0.239
GAUGUUUGCCUGUCCGCUUUAUCUUUGUAGUACAUGAACAGUUCAGCCUUAGACUAUGUAACUGUUUUCUCAUCCUUAGCUGAAAAUGAGGGGCCUACUGUAUUGCGAGA: 0.567
ACUGCCAGCGUGGAGAGAGGAAGAGUCUAAUUAAAGGGAGGAUAUAAAAGGAUGAUUUCUGUUUUCAUCUACUUAUGUGGAGUAUGACUCACACUUCUAUAUUUGCACUG: 1.35
GCCUGCCCCAGGUGUCCCGCUCCUCUCAGAGUCCUCCCCCUACCAGGUAGUGUGUAGCUCCAUUUCAGAAUGUUAACCUCCAGUGAAGAGCUAAUGACUGGUUAGAAGAU: 0.658
CUAGCAUGUGAACCUGGUCCUAGUUGGAAACUCACCCAGCCUACCUUAGUACUAGUGUUUCCUACUUGAUCUCCCAUGCCUGUGGAGACUAAGCCCCCACUACCCCAGAG: 4.33
GCUUUUGUGAUGCAGCUACCAUGAUUCCAAAUAAGUAAAAAUCAGCCACUUCUCCCUGUCCACUAGAGGUCGCUGUCUUCACAGCUUCUCUCACCCUAGCCAAAGGUCCU: 0.351

Set 2 — target: CCNB2, cyclin fold, Cln2 fusion (human); method: yeast growth competition, sequencing; medium: yeast; notes: weak parent motif; reference: not given; direction: higher = stronger binding; measurement: normalised enrichment score
Parent: SAMHD1 docking peptide (human); ASKSRVQLFKDDP
AVKSRVQLFKDDP [S2V]: 0.549
ASKSRVQLFKDGP [D12G]: 0.22
ASKSRVQRFKDDP [L8R]: 0.314
ASKTRVQLFKDDP [S4T]: 0.39
ASKNRVQLFKDDP [S4N]: 0.211
ASKSRVQLFKMDP [D11M]: 0.368
ASSSRVQLFKDDP [K3S]: 0.0394
ASKSRVQLSKDDP [F9S]: 0.363
ASKSRVQLFKGDP [D11G]: 0.401
ASRSRVQLFKDDP [K3R]: 0.486
ASKSRVQMFKDDP [L8M]: 0.194
AAKSRVQLFKDDP [S2A]: 0.742
ASKSRVQTFKDDP [L8T]: 0.363
ASKSIVQLFKDDP [R5I]: 0.0956
ASKGRVQLFKDDP [S4G]: 0.241
ASKSRVQLFKWDP [D11W]: -0.0308
ASKSRVQLYKDDP [F9Y]: 0.33
AEKSRVQLFKDDP [S2E]: 0.411
ASKSRVHLFKDDP [Q7H]: 0.548
ASKSRVRLFKDDP [Q7R]: 0.227
ASKSRCQLFKDDP [V6C]: -0.0743
ASKSRVQLFKDQP [D12Q]: -0.138

Set 3 — method: RNA Bind-n-Seq; form: RNA; medium: in vitro; tested at: 200 nM; notes: whole 134-nt RNA, ends assumed; together with: 150 mM KCl; reference: input library; direction: higher = stronger binding; measurement: log2 enrichment
Target: Ras GTPase-activating protein-binding protein 1, full length (G3BP1, Homo sapiens, UniProt Q13283)
UniProt Q13283, sequence (whole entry, looked up): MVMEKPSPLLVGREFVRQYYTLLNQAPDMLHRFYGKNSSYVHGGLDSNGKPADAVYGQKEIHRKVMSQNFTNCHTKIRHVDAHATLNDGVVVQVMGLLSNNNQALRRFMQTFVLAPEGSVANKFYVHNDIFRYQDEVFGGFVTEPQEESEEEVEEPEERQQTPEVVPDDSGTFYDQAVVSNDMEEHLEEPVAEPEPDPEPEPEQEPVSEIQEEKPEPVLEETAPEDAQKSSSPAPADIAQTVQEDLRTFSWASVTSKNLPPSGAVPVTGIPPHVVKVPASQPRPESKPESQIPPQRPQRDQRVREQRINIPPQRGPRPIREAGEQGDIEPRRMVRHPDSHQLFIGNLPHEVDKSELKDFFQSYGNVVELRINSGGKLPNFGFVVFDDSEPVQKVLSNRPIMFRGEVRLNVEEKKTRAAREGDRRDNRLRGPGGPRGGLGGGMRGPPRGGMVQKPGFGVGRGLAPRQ
Constant ends, left off below: GGGAGUUCUACAGUCCGACGAUC … UGGAAUUCUCGGGUGUCAAGG
GAAAUUUGGUUAUGUGGAUUUUGAAUCUGCUGAAGACCUGGAGAAAGCGUUGGAACUCACUGGUUUGAAAGUCUUUGGCAAUGAAAUUAA: -2.13
ACCAUGGAGGUGGGCAUCUUUGGGAAGUGGGGCAAGGGGGGGAUAGGGAGGGGGGUAACACUUUGGGAACAGGUGGUCCCAGGUCGUUUC: 1.23
CUCAAGUCCUGUGCUACACAUCGUAUGUACCGAAUCGGGUGGGAAAGGGAGGGAAAGUAUUAUGUUACGCCGUUCGGAUCUGCACUUCCA: 1.22
CAAGUCCUGUGCUACACAUCGUAUGUACCGAAUCGGGUUUUUGGGAGGGAAAGGGAAAGUAUUAUGUUACGCCGUUCGGAUCUGCACUUC: 0.517
UUUUAGGAAGCUGCAGUAAAGGAAGAUGAAGAAGAAGUUUCAGAUAAGGGCAGUGAUUCUGAAGAAGAAGAAACCAAUAGAGAUUCCCAA: -1.02
UCCUGUGCUACACAUCGUAUGUACCGAAUCAAAUUUUUUUAAAUUUAAACCCCCCCAAAAAAGUAUUAUGUUACGCCGUUCGGAUCUGCA: 0.109
CCUCAAGUCCUGUGCUACACAUCGUAUGUACCGAAUCGGUGGAGGUUUUUGGAAAGUAUUAUGUUACGCCGUUCGGAUCUGCACUUCCAG: -0.158
CUGUGCUACACAUCGUAUGUACCGAAUCGGGGCCCCCCCGGCCCCCCCGGGGCCCCCCCGGAAAGUAUUAUGUUACGCCGUUCGGAUCUG: -0.315
UGGCCCUGGUGGCAUGCCGGGAGGAAGAGGUGGCCUCAUGGAUCGUGGUGGUCCCGGUGGAAUGUUCAGAGGUGGCCGUGGUGGAGACAG: 0.128
UCCUGUGCUACACAUCGUAUGUACCGAAUCGGGUUUUUUUGGGUUUUUGGGUUUUUGGGAAAGUAUUAUGUUACGCCGUUCGGAUCUGCA: -0.351
GUCCUGUGCUACACAUCGUAUGUACCGAAUCAAAUUUAAAUUUUUAAACCCCCCCAAAAAAGUAUUAUGUUACGCCGUUCGGAUCUGCAC: 0.0825
UGGCCCUGGUGGCAUGCGGGGAGGAAGAGGUGGCCUCAUGGAUCGUGGUGGUCCCGGUGGAAUGUUCAGAGGUGGCCGUGGUCGAGACAG: -0.116
ACCAUGCAGGUGGGCAUCUUUGGGAAGUGGGGCAAGGGGGGGAUAGGGAGGGGGGUAACACUUUGGGAACAGGUGGUACCAGGUCGUUUC: 1.07
UGGCAUGGAUCCAGUGGGCUGAGACCACCCUCAUUCAGCGGGAUCAGGAGCCAAUCCCGCAGAACAUUGACCGAGUUAAAGCCCUUAUCG: -0.999

Set 4 — method: DHFR PCA, deep sequencing; medium: yeast; together with: (+)-ABA 1.4 µM; reference: wild-type fitted maximum; direction: higher = stronger binding; measurement: relative binding score
Target: ABI1, truncated, D143A, DHFR fusion (Arabidopsis thaliana)
Notes: methotrexate growth selection, single substitutions
Parent: PYL1, truncated, DHFR fusion (Arabidopsis thaliana); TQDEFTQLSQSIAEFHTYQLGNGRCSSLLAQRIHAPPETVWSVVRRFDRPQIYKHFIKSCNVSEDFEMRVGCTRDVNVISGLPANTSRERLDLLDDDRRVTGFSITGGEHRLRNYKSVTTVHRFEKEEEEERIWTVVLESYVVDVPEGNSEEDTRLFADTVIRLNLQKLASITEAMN; partner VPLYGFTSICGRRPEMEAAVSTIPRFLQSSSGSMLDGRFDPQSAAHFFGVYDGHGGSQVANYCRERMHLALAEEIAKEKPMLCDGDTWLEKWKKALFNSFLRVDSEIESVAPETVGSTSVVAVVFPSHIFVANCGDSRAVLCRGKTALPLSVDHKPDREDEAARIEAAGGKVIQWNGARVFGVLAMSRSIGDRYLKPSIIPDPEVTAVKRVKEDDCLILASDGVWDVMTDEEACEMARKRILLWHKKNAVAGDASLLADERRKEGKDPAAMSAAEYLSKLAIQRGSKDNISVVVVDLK
S150W: -3.22%
G148I: -24.8%
I105S: 7.55%
V70G: 0.369%
R74A: -2.19%
D95K: 1.81%
A170C: 31.8%
T17L: -13.4%
V40Q: -6.87%
L138N: 7.78%
R32A: 49.6%
E128P: 53.1%
E147W: 12.4%
A84S: 21.8%
E38C: 26%
D75L: 68.5%
L28N: -5.74%

Set 5 — Molecule: RNF13 RING domain (UniProt O43567); method: yeast two-hybrid; medium: yeast; notes: mostly zero background; reference: not given; direction: higher = stronger interaction; measurement: lacZ reporter activity
UniProt O43567, sequence (whole entry, looked up): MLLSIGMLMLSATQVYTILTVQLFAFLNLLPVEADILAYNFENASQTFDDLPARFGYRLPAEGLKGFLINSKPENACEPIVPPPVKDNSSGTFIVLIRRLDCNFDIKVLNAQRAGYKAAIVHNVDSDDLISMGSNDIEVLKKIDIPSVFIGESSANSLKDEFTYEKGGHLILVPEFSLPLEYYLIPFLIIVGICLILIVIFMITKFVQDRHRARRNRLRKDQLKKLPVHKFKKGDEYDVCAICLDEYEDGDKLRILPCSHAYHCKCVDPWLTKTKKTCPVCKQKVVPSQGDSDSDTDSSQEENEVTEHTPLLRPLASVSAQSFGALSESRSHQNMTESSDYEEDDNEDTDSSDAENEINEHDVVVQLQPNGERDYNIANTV
UBE2U UBC core domain (UniProt Q5VVX9): 0
UBE2Q2 UBC core domain (UniProt Q8WVN8): 0
UBE2H UBC core domain (UniProt P62256): 0
UBE2E1 UBC core domain (UniProt P51965): 2430
CDC34 UBC core domain (UniProt P49427): 0
